Measurements of several laboratories.
Each line is one published result; not all experiments were run side by side. Several values in a cell are separate wells, animals, samples, runs or records. ± marks the error that the study gave.
ALB: Albumin (ALB, Homo sapiens, UniProt P02768)
SNF1: Carbon catabolite-derepressing protein kinase (SNF1, Candida albicans, UniProt P52497)
uncharacterized protein: uncharacterized protein (Spodoptera exigua, UniProt F1CEY0)
T1: RNA aptamer; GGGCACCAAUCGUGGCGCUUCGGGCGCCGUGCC

SMILES	target	test	system	conditions	how to read	endpoint	value
CN(C(=O)n1cnc(-c2ccc[n+]([O-])c2)c1)C1CCCCC1	FAAH (Homo sapiens, UniProt O00519)	enzyme activity, inhibitor	COS cells expressing human FAAH	1 h	baseline: whole cells over membrane preparation	potency ratio	4 to 6
Nc1ncnc2c1ncn2[C@@H]1O[C@H](COP(=O)(O)CP(=O)(O)OP(=O)(O)O)[C@@H](O)[C@H]1O	P2X purinoceptor 1 (P2RX1, Homo sapiens, UniProt P51575, K136A)	saturation binding	HEK293	79 nM	–	specific binding	2840 CCPM and 3030 CCPM
COc1cc(-c2[o+]c3cc(O)cc(O)c3cc2O[C@@H]2O[C@H](CO)[C@@H](O)[C@H](O)[C@H]2O)cc(O)c1O	ALB	van't Hoff analysis	–	concentration not given	–	binding entropy change	-0.02 kJ/(mol·K)
Oc1ccccc1-c1n[nH]cc1-c1ccnc2ccccc12	SNF1	kinase binding, MIB/MS competition	Candida albicans lysate	1 µM	baseline: DMSO, negative = stronger binding	log2 fold change	-0.04
CCCCCCCC(=O)c1cc(OC)c(OC)c(OC)c1CC(=O)OCC	RXRA (Homo sapiens, UniProt P19793)	reporter gene, Gal4 hybrid reporter	–	10 µM	baseline: vehicle	activation	0.74 fold
NCCCC(=O)O	SLC6A6 (Homo sapiens, UniProt P31641, L306A)	binding, microscale thermophoresis	–	62.5 µM, room temperature, together with: 50 nM labelled protein	higher = more binding	normalised MST signal	0.208
Nc1nc2c(ncn2[C@@H]2O[C@H](COP(=O)(O)O)[C@@H](O)[C@H]2O)c(=O)[nH]1	GUK1 (Homo sapiens, UniProt Q16774)	substrate, NADH-coupled	–	KCl 50 mM, together with: ATP 2.5 mM	–	Km	29.5 µM
CN1CCN(c2cc(-c3ccncc3)c(-c3ccc4ccccc4c3)nn2)CC1	PTGFR (Homo sapiens, UniProt P43088)	agonist, FLIPR	–	12.5 µM	–	activation	-0.5%
N[C@H](CNC(=O)c1cc(Br)c(-c2ccccc2Br)s1)C(=O)O	Glutamate receptor ionotropic, NMDA 1, with GluN2C (Grin1, Rattus norvegicus, UniProt P35439)	–	–	together with: glutamate 300 µM	–	Hill slope	1.18
CCCCCC(C)O (stereo not drawn)	uncharacterized protein	binding, competitor, fluorescence displacement	–	20 µM, pH 7.4, together with: 1-NPN 20 µM	baseline: 1-NPN alone	relative fluorescence	69.1%
CC(=O)N[C@@H](CCCNC(=N)N)C(=O)N[C@@H](CCCNC(=N)N)C(=O)N[C@H]1CSSC[C@@H](C(=O)N[C@@H](CCCNC(=N)N)C(=O)N[C@@H](CCCNC(=N)N)C(N)=O)NC(=O)[C@H](C(C)C)NC(=O)[C@@H]2CCCN2C(=O)[C@H](CC(=O)O)NC(=O)[C@H](Cc2ccc(O)cc2)NC(=O)[C@H](CO)NC(=O)[C@H](CCC(C)C)NC(=O)[C@H](Cc2ccc(O)cc2)NC(=O)[C@H](CC(C)C)NC(=O)[C@@H]2CCCN2C1=O	GTPase KRas, GDP-bound (KRAS, Homo sapiens, UniProt P01116, G12D)	affinity selection mass spectrometry	–	mixture library 1, together with: protein titration up to 5 µM	lower is stronger binding	lowest bound protein concentration	5 µM
COC(=O)c1cc(C(C)=NNc2nc(-c3ccc4c(c3)OCCCO4)cs2)ccc1O	PTPN1 (Homo sapiens, UniProt P18031)	enzyme activity, inhibitor, Lineweaver-Burk kinetics	–	1.5 µM	baseline: uninhibited control	Km decrease	6.25%
CC[C@@H]1[C@H](F)C(=O)N[C@@H]1COc1nccc2cc(C(N)=O)c(OC)cc12	ULK1 (Homo sapiens, UniProt O75385)	ATP-site probe binding, ActivX profiling	THP-1 cell lysate	0.01 mM, Lys1 site	–	inhibition	4.8%
CN(CCO)c1ccc(/C=C(\C#N)c2ccc(C#N)cc2)cc1	T1, RNA aptamer	fluorescence titration	–	–	–	binding	no binding
N[C@H](CNC(=O)c1ccc(-c2ccccc2Br)s1)C(=O)O	Glutamate receptor ionotropic, NMDA 1, with GluN2C (Grin1, Rattus norvegicus, UniProt P35439, S688A)	–	–	–	baseline: mutant over wild type	potency ratio	7.3 fold
O=c1cc(-c2ccc([N+](=O)[O-])cc2)[nH]c2c(-c3ccc(Cl)cc3)c(Cc3ccccc3)nn12	GFM1 (Homo sapiens, UniProt Q96RP9)	thermal stability, binder, thermal proteome profiling	RD, cell lysate	50 µM, 0.5% DMSO	baseline: DMSO vehicle	melting temperature shift	2.6 °C
Nc1ccc(C(=O)O)cc1	BEST1, with wild-type BEST1 (Homo sapiens, UniProt O76090, A243T)	whole-cell patch clamp	HEK293 co-expressing WT and A243T mutant	concentration not given, membrane potential -100 mV	–	current density	-30.3 pA/pF and -25.9 pA/pF and -8.37 pA/pF and -26.1 pA/pF and -3.92 pA/pF and -32.1 pA/pF and -21.4 pA/pF
COc1cc(-c2cncc3c2CN(C)Cc2cc(N4CCNCC4)ccc2-3)cc(OC)c1OC	WEE2 (Homo sapiens, UniProt P0C1S8)	kinase activity	–	1 µM, human enzyme, together with: ATP 10 µM	baseline: DMSO control	remaining activity	117%
O=[N+]([O-])c1ccc(OP(=O)(O)O)cc1	alkaline phosphatase	substrate	–	–	–	Km	207 µM
O=c1nc(SCc2cc(F)cc(C(F)(F)F)c2)nc(SCc2ccc3nc(Cl)ccc3c2)[nH]1	TOP2A (Homo sapiens, UniProt P11388)	ATPase activity	–	31.25 µM, together with: ATP 0.025 mM	–	ATP hydrolysis rate	0.259 µM/min and 0.207 µM/min
O=c1cc(CO)occ1[O-].[Cl-].[W+4].c1cc[cH-]c1.c1cc[cH-]c1	ALB	binding, fluorescence quenching	–	310 K	–	Gibbs free energy change	-5.92 kcal/mol
CCN1CCC[C@H]1CNC(=O)c1c(O)c(Cl)cc(Cl)c1OC	Probable G-protein coupled receptor 148 (GPR148, Homo sapiens, UniProt Q8TDV2)	β-arrestin recruitment, TANGO luminescence, refers to: GPR148	–	concentration not given	baseline: basal luminescence	log2 fold change	0.462
NC(c1csc(Nc2nncc3ccccc23)n1)c1ccccc1Cl (stereo not drawn)	ADORA2A (Homo sapiens, UniProt P29274)	radioligand displacement	–	together with: [3H]ZM241385	–	ligand efficiency	0.31
Cc1n[nH]c2ccc(-c3cc(OC[C@@H](N)Cc4ccccc4)cnc3-c3ccoc3)cc12	SNF1	kinase binding, competitor, MIB/MS competition, refers to: SNF1	Candida albicans cell lysate	1 µM	baseline: DMSO	log2 fold change	-0.136
Nc1ncnc2c1ncn2[C@@H]1O[C@H](COP(=O)(O)OP(=O)(O)OP(=O)(O)O)[C@@H](O)[C@H]1O	CKMT1A (Homo sapiens, UniProt P12532, D359N)	substrate, ADP-Glo luminescence	–	pH 8.5, forward reaction, D321N mutant, together with: second substrate in excess	–	kcat	11 ± 5 s⁻¹
O=C(COP(=O)(O)O)[C@@H](O)[C@H](O)[C@H](O)COP(=O)(O)O	Fructose-1,6-bisphosphatase 1 (Mus musculus, UniProt Q9QXD6)	thermal shift	–	0.1 mM, wild type, together with: AMP 0.2 mM	–	melting temperature	70.3 ± 0.6 °C
CC(=O)Nc1ccc(O)cc1	BRD4 (Homo sapiens, UniProt O60885)	19F NMR, refers to: tyrosine 65	–	188 µM	baseline: free protein	chemical shift change	-0.009 ppm
Nc1nc2c(ncn2[C@@H]2O[C@H](COP(=O)(O)OP(=O)(O)O[C@H]3O[C@H](CO)[C@@H](O)[C@H](O)[C@@H]3O)[C@@H](O)[C@H]2O)c(=O)[nH]1	AncA ancestral enzyme	substrate, GDP-Glo GDP release	–	pH 6.5, 27 °C, apparent Km, together with: 25 mM mannose acceptor	–	Km	310 ± 20 µM
Cc1cc(-c2ccnc3[nH]cc(F)c23)cc(F)c1[C@@]1(O)[C@H](C)CN(C(=O)CN)C[C@@H]1C	JAK1 (Homo sapiens, UniProt P23458)	ATP/ADP probe binding, KiNativ	HEK293T lysate	1 µM, Lys1 peptide domain 2	–	probe labelling inhibition	24.4%
CCC/C=C\CO	uncharacterized protein	binding, 1-NPN competitive displacement	–	protein 2.0 µM, together with: 1-NPN 20 µM	baseline: 1-NPN without compound, lower = stronger binding	relative fluorescence	72.6%
